Published values pooled from the literature.
Numbered parts are unrelated; each lists some results of a single study. Substitutions count along the parent as printed.

Block 1
Target: ABI1, truncated, D143A, DHFR fusion (Arabidopsis thaliana)
Method: DHFR PCA, deep sequencing
Sample: yeast
Notes: methotrexate growth selection, single substitutions
Added: (+)-ABA 17 µM
Relative to: wild-type fitted maximum
Direction: higher = stronger binding
Quantity: relative binding score
Starting sequence: PYL1, truncated, DHFR fusion (Arabidopsis thaliana); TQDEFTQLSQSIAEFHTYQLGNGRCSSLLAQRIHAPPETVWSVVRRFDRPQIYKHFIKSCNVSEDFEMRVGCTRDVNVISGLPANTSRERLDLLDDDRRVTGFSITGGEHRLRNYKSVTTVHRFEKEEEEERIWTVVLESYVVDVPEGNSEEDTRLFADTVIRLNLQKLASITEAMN
E89C: -14.2%
K58V: 40.7%
V121S: 10.9%
S11D: 82.6%
G71V: -9.99%
C25E: -4.55%
R132T: 94.7%
I33M: 63.8%
E38F: 20.6%
V43K: 7.29%
C60S: 34.8%
I79W: 80%
D144F: -11.1%
M68R: 32.1%
V142R: 63.3%
T17V: 52.8%
D97C: 77.7%
N177C: 99.7%
Y53F: 51.3%
S9F: 63.5%
S27Q: 55.1%

Block 2
Target: Hepatocyte nuclear factor 3-alpha (Foxa1, Mus musculus, UniProt P35582, residues 1-468, full length assumed)
Method: EMSA with sequencing
Molecule type: double-stranded DNA, one strand shown
Sample: in vitro
Concentration: 10 and 20 nM
Notes: whole designed probe, mean of two concentrations, ends assumed
Relative to: negative control set to 0
Direction: higher = stronger binding
Quantity: normalised bound fraction
Constant ends, left off below: GTGAGCGGTGCCCATTGATGGGGAAC … TTTCACTGGGATCGTGGGGAC
Construct (chain): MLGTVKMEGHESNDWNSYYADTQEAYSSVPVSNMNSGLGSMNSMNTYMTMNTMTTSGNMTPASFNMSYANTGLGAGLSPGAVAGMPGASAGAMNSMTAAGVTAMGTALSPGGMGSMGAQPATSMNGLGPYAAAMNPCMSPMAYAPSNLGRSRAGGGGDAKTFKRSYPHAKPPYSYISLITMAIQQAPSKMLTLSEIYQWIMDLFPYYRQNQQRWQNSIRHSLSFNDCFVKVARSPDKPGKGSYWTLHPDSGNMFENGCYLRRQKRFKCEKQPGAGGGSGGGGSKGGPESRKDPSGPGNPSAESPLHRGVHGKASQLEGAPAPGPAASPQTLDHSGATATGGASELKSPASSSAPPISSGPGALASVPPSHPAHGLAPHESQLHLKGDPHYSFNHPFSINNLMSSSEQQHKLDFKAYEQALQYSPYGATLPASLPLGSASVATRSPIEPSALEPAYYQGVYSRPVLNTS
TAATTAAGACATATCTAAAAGTATCAACAGTATCGGGAAGAAAACATGAAGTTCACATGATACCCCAATGCTTCTAGAAAAGTCACAAATGAGTAAACAAGGAATATTATAACTGATATGTGTGATTCAGATAAAGACTAGGGTGGTACATGAAAAATGGCTTAAGTCAAGGGTGTAATTGAGACTAGATCAA: 0.28 ratio
ATCCACGAACCTGGCCCTGTCTGGTAACCACAGTGAACCATCGCAAGATACAGCACTATGTGCCCAGTTGGGCTGGAATAATGACTCACCCAGTGTTGACACATCACATCCTCAGGGACACGGAAGTGTACTTGTTTTTGGAGAGGGACTAGACCTTCATCCTTGAGGTGAAGAAGATTTTCTCTCCAGGGTG: 0.132 ratio
CTTCTTTCCTTCCTTCTTTCTTTCTCTTTCCTGTTTAAGTGAAGTGTGCAGAGGCAGATTGGGGTAGATGTTTACCTCTGTTGACATCAATGTGTCATCTGCTTCCCACTGCCTCACTGGGCCAGGTGGGGGCAGAAACCCAGCTCTCCAATGGGTGACATCCACACAGGAGGCAGGGGGGAAGTAACCTGTC: 0.0508 ratio
ACATATGACCATTTTTTGGTTTATGTTTGGTCCCCTCTGATTGTTACATATACTTGAATTGCTTGCTTGGATGGGGAGCATACAAAATAATTAAGTAATCTTGAAGAAAAGTAGCTTGATTCGTTGCTAGGCTGAAGGATCACATAGAAAAGTTTTTTTCCAATTGCCCAAAATTAAGTACAAATACACACAT: 0.0116 ratio
TGTATCCATCTGGGCAGTATCTTCTCTGGGCCTGGCCTGTCATAGGTGCTTCAGGTTTCCCCATTTGAACCAGATACCAGTCGGGTTACCGGATGTTTGCTTAAAATGAGTCATAGGCTACGTGCTATTCCTGTGCTGCTTCCAGCTAGGACTGATCGAATCAGTCTGGATTTTCCTTGGGGTGATCCGCAGG: 0.161 ratio

Block 3
Target: Ras GTPase-activating protein-binding protein 1, C-terminal RGG region (G3BP1, Homo sapiens, UniProt Q13283)
UniProt Q13283, sequence (whole entry, looked up): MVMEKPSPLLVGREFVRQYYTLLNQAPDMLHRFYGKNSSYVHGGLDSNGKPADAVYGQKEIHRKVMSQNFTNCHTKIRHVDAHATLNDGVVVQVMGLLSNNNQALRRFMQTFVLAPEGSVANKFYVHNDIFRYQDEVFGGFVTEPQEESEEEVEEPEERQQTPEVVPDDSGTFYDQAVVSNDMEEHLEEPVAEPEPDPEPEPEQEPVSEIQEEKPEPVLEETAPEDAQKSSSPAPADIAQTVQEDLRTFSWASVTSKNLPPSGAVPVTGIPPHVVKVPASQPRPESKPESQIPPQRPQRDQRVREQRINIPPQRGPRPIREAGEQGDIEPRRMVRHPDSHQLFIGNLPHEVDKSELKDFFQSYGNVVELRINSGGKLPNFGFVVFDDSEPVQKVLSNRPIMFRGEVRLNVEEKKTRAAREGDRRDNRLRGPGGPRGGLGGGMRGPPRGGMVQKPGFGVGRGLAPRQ
Method: RNA Bind-n-Seq
Molecule type: RNA
Sample: in vitro
Concentration: 1 µM
Notes: whole 134-nt RNA, ends assumed
Added: 150 mM KCl
Relative to: input library
Direction: higher = stronger binding
Quantity: log2 enrichment
Constant ends, left off below: GGGAGUUCUACAGUCCGACGAUC … UGGAAUUCUCGGGUGUCAAGG
CAAGUCCUGUGCUACACAUCGUAUGUACCGAAUCGGGGAAAGGGGAAAGGGAAAGGAAAGUAUUAUGUUACGCCGUUCGGAUCUGCACUU: -1.07
ACCAUGCAGGUGGGCAUCUUUGGGAAGUGGGCCAAGGGGGGGAUAGGGAGGGGGGUAACACUUUGGGAACAGGUGGUCCCAGGUCGUUUC: -0.884
AUGAAGAUGAAGAAGAGGAUGAUGAGGACGAGGAUGACGACGACGACGAAGAUGAUGAAGAUGAUGAUGAUGAAGAUGAUGAGGAGGAGG: -0.461
UCAAGUCCUGUGCUACACAUCGUAUGUACCGAAUCGGGGUUUGGUUUGGGUUUGGAAAGUAUUAUGUUACGCCGUUCGGAUCUGCACUUC: -0.975
ACCAUGCAGGUGGGCAUCUUUGGGAAGUGGGGCAAGGGGGGGAUAGGGAGGGGGGUAACACUUUGGGAACAGGUGGUCCCAGGGCGUUUC: 2.23
UAACUUUAGAGGAGGAUCUGAUGGAUAUGGCAGUGGACGUGGAUUUGGGGAUGGCUAUAAUGGGUAUCGAGGAGGACCUGGAGGUGGCAA: -0.515
UGUCUCGAGCAGGGGACAAGACGUUCGAGGAGUACCUGGAUGAGUAUUACCGGCUGGACUACGAGGACAUCAUCGACGACCUGCCCUGUC: -1.25
ACCAUGCAGGUGGGCAUCUUUGGGAAGUGGGGCAAGGGGGGGAUAGGGAGGGGGGUAUCACUUUGGGAACAGGUGGUCCCAGGUCGUUUC: 1.93
UCCUGUGCUACACAUCGUAUGUACCGAAUCGGGAAAAAAAGGGUUUUUGGGUUUUUGGGAAAGUAUUAUGUUACGCCGUUCGGAUCUGCA: -0.535

Block 4
Target: RNA binding protein fox-1 homolog 2, RRM domain, GST-SBP tag (RBFOX2, Homo sapiens, UniProt O43251-10, residues 100-194)
Method: RNA Bind-n-Seq
Molecule type: RNA
Sample: in vitro
Concentration: 365 nM
Notes: natural RNA segment, single round, ends assumed
Relative to: no-protein control
Direction: higher = stronger binding
Quantity: RBNS enrichment (R)
Constant ends, left off below: GGGAGUUCUACAGUCCGACGAUC … UGGAAUUCUCGGGUGCCAA
Construct (chain): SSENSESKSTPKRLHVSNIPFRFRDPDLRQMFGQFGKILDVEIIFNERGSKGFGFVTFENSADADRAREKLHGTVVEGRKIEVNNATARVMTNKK
AAAAAAAAAUGGUGGCUUCAGCUCCAGCCCCUUUCCAAAAUUUUUCAACCCCACCCUGUUUGGAUUUUUAAUUAAAAUCUAGUAGUUCUCUUGGUAUUAAAACACUUCUG: 1.01
CUGUCAGGUUGGUGCGGAAGGGCUAGGAUCCUUGCCGCCCUUCCCUUCGGUGCCGGAACCCUCCCAAUUCCCCUCCCUGGCCCCACAUCCCCAACCCUGCUGCUGGAGUG: 0.388
ACCUGGUCUGGUCAGGCAAUGCCCUGCGGCUCUGGAAAGCAACUUCAUCCCAGCUGCUGAGGCGAAAUAUAAAACUGAGACUGUAUAUGUUGUGAAUGGGCUUUCAUAAA: 2.17
CAUAUUUAUGGCCAGGCAUUCUAUCUGUUAGACAAUCGAGUUGGGGGUAGGGCAGCCUAGCUCUUUUUGUCACCUUGCCCCGAGCCCUCUUCAGUCUUCCUGUUCACCCC: 0.339
AAGGGCCUCCUUGUUCUUUCCCAGAAACAUUCAGUGGCUUGGACCAACCCCUGAGUAUAUACAUUGGCUCUUUCCCCCCUGUACCUUAUCUCUCCCCUCCAUCCCCUCCC: 0.659
AAAAAAACAAAGCAACAAAUUAACUAGAUACAGAAUAAUGGAGAACAAGUUGUUAAAACAUUUAAUAUUAUAUAGGAUAUUGCUAAUUGUGUAUAUGUUGGUUUAAUUAA: 0.768
AUAUUUUUGUCUUGUUCUUCCAAUUGGUAUAUACAACUUUCAGAGCCUCUUGUAUUUGGAAGGCUGGAAGGGCCCAGACUUUGGAAUAGUGUCUUGGUUUCACUGUUUUU: 0.593
UCAGCCAGUGAGAUGGCCAGCCCCCUCCUGCUGCCACACCACGUAAGUUCUCAGUCCCAACCUCGGGGAUGUGUGCAGACAGGGCUGUGUGACCACAGCUGGGCCCUGUU: 0.355

For quick reference, copied from above (block 1):
N177C: 99.7%
S27Q: 55.1%
M68R: 32.1%
D144F: -11.1%
S9F: 63.5%
